# Published values collected from several papers.
# Numbers after ± are the reported error.
# CACNA1C: Voltage-dependent L-type calcium channel subunit alpha-1C (CACNA1C, Homo sapiens, UniProt Q13936)
# Sequence of UniProt Q13936 (whole entry, looked up): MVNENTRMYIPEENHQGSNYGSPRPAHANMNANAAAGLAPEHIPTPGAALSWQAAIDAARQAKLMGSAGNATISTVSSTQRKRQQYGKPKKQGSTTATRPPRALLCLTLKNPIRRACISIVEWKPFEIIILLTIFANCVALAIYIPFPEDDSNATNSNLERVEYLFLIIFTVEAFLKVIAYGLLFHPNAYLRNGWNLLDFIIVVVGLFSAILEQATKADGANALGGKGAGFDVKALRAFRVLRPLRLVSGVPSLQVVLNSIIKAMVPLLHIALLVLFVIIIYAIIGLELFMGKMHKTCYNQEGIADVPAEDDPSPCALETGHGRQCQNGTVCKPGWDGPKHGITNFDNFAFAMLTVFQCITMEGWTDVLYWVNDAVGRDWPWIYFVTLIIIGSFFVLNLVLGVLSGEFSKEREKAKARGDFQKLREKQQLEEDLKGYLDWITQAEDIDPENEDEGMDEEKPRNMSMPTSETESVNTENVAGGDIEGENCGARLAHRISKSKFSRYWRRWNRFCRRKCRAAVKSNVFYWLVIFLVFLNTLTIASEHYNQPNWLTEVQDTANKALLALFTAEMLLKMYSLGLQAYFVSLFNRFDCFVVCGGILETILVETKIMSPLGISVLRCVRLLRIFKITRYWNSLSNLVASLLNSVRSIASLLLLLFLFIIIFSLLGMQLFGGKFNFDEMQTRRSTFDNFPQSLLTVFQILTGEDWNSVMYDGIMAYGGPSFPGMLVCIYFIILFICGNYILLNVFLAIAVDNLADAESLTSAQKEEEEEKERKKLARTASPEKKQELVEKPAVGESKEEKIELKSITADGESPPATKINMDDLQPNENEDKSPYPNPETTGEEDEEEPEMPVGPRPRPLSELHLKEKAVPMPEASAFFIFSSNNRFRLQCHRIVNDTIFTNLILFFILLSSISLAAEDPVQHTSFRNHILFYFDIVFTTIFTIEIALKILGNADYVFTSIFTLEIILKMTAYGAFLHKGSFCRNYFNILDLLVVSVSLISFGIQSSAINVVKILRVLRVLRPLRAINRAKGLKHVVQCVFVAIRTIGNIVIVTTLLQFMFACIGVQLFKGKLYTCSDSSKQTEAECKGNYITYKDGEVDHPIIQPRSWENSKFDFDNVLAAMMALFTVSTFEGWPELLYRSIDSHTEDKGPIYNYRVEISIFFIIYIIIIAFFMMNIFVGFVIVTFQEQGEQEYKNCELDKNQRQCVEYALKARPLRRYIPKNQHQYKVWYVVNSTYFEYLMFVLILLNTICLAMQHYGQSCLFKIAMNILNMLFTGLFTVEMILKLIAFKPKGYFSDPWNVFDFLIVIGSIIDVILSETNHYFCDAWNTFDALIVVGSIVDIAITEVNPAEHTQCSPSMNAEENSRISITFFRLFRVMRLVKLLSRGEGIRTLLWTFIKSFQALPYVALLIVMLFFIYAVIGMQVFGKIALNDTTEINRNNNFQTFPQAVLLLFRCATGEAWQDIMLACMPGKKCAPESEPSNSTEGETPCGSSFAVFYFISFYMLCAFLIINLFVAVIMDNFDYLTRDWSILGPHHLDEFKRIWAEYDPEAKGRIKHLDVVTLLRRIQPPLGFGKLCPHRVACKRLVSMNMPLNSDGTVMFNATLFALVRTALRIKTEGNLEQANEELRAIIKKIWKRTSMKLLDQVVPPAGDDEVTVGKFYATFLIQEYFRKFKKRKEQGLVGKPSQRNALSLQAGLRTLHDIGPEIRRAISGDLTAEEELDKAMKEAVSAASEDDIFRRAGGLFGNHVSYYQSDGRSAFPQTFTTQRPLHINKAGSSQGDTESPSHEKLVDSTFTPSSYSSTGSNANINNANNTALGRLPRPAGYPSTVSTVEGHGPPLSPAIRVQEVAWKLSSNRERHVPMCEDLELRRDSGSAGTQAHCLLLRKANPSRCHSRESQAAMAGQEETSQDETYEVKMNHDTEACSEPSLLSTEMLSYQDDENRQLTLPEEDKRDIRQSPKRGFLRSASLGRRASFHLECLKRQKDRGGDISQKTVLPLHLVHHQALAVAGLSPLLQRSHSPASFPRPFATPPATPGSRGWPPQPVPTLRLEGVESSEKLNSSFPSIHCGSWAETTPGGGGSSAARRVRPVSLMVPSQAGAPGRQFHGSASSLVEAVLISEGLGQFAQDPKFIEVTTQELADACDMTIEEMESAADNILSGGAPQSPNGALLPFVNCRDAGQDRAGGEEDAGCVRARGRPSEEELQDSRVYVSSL
# CYP3A4: Cytochrome P450 3A4 (CYP3A4, Homo sapiens, UniProt P08684)
# Sequence of UniProt P08684 (whole entry, looked up): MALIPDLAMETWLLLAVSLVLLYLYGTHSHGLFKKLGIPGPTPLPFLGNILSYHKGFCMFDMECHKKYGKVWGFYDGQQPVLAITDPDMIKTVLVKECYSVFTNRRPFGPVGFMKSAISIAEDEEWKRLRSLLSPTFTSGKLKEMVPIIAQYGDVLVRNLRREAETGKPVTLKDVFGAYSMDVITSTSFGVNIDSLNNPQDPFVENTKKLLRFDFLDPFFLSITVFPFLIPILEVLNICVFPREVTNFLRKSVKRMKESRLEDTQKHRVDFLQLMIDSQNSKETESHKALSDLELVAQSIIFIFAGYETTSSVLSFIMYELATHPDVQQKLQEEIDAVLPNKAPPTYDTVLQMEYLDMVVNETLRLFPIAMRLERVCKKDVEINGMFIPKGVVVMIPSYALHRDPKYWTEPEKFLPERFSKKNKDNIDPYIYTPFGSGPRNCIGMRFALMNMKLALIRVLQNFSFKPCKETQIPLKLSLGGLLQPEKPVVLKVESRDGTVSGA
# Sequence of UniProt P14780 (whole entry, looked up): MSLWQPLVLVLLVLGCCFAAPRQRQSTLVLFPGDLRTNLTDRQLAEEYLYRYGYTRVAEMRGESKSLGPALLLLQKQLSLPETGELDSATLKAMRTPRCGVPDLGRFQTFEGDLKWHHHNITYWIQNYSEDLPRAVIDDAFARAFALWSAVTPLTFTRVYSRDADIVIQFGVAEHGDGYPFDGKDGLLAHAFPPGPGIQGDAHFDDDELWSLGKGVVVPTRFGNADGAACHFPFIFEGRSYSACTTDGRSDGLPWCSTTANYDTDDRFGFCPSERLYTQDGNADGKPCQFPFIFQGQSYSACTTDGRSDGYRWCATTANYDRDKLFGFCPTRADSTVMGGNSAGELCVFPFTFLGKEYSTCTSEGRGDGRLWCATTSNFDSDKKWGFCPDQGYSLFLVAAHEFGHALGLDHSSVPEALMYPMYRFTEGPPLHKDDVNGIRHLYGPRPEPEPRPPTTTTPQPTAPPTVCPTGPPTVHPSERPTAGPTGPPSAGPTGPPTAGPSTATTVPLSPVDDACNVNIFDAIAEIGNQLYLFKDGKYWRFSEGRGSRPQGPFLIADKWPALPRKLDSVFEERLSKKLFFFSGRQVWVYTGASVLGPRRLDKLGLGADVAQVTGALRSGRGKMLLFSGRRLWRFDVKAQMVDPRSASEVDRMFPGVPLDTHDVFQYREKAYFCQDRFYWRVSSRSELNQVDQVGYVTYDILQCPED
# Sequence of UniProt P16257 (whole entry, looked up): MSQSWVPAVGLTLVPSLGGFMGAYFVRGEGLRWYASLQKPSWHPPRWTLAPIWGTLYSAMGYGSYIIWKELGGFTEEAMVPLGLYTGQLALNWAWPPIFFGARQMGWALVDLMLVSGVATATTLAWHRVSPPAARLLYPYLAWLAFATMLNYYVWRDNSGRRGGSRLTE
# Sequence of UniProt O60502 (whole entry, looked up): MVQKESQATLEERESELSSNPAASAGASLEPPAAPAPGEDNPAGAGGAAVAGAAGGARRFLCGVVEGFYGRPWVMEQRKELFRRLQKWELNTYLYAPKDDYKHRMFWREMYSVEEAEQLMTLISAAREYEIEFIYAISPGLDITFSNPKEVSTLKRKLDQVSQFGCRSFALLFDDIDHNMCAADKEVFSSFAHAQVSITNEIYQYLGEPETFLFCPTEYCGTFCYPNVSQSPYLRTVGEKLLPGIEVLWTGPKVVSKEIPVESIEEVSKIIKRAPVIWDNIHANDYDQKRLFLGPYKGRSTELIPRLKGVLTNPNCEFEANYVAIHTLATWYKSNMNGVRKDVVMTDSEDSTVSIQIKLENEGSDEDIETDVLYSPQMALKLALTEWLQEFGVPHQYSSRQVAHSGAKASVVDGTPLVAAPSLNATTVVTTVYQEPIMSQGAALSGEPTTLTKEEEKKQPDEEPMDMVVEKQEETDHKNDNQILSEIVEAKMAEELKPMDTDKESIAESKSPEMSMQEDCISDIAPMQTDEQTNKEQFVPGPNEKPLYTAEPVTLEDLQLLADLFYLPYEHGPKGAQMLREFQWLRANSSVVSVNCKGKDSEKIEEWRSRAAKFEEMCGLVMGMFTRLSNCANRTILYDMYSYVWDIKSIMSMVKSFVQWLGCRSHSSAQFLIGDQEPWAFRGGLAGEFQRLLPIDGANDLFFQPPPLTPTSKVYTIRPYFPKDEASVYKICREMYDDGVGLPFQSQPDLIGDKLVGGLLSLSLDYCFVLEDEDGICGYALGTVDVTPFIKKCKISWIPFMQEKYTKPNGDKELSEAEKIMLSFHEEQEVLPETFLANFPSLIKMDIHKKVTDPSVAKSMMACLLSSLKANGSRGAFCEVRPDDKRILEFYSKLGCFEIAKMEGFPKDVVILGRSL
# Sequence of UniProt P05178 (whole entry, looked up): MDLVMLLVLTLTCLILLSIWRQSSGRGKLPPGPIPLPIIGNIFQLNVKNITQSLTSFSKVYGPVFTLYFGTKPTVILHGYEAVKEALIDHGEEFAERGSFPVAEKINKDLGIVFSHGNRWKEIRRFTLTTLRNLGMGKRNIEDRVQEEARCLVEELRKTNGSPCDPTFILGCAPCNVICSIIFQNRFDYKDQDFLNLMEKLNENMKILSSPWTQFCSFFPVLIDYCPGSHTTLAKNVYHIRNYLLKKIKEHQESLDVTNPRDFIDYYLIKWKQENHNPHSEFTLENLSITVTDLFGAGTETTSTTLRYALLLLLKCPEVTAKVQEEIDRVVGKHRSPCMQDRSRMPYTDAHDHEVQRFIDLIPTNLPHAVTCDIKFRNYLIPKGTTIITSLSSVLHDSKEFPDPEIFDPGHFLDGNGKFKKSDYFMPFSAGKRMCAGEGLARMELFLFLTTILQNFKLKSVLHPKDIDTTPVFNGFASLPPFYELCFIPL
SMILES,target,test,system,setting,how to read,quantity,value
CCOc1c(C(C)(C)O)sc2cnc(Nc3ccc(N4CCC(N5CC6(COC6)C5)CC4)cc3OC)nc12,CACNA1C,"ion current, inhibitor, patch clamp",,10 µM,,inhibition,14%
O=C(CSc1nnc(N2CCOCC2)n1-c1ccccc1)NCc1cccc(NC(=O)C2CC2)c1,CACNA1C,"calcium signal, fluorescence",,,,IC50,> 30000 nM
O=c1c(/C=N/NC(=S)N/N=C/c2cc(Cl)ccc2O)coc2ccccc12,Zn2+ complex,potentiometric titration,,25 °C,,log stability constant,17.3
CC(C)C[C@@H]1NC(=O)[C@H](C)NC(=O)[C@H](CC2CCN(C(=N)N)CC2)NC(=O)[C@H](Cc2ccccc2)NC(=O)[C@H](CCCNC(=N)N)NC(=O)[C@H](C)NC(=O)[C@@H]2CCCN2C(=O)[C@@H](N)CSSC[C@@H](C(=O)O)NC(=O)[C@H](Cc2c[nH]c3ccccc23)NC1=O,plasmin,substrate,,,,cleavage rate,0.059 %/(h·nM plasmin)
CC(C)c1nc(CN(C)C(=O)NC(C(=O)NC(Cc2ccccc2)CC(O)C(N)Cc2ccccc2)C(C)C)cs1 (centres unmarked),CYP3A4,,,,,Kd,160 ± 40 nM
CC(C)(C)OC[C@@H](NC(=O)CNC(=O)CN1CCN(CC(=O)OC(C)(C)C)CCN(CC(=O)OC(C)(C)C)CCN(CC(=O)OC(C)(C)C)CC1)C(=O)N[C@H](COC(C)(C)C)C(=O)NCC(=O)NCC(=O)NCC(=O)N[C@@H](Cc1ccccc1)C(=O)O,"Cathepsin B (CTSB, Homo sapiens, UniProt P07858)","substrate, LC/MS",,"48 h, pH 5.0, room temperature",,metabolized peptide,78%
CCOC(=O)CN1CCN(CC(=O)OCC)CCN(Cc2cc(-c3nc4ccccc4s3)cc(OC)c2O)CC1,copper(II) ion,"metal chelation, spectrophotometric titration",aqueous solution,"50 µM, pH 6.6, together with: Cu(II) 50 µM",higher = stronger binding,pCu,9.6
CNC(=S)N/N=C/c1ccccn1,Zn2+ complex,potentiometric titration,,25 °C,,log stability constant,17.4
O=C(NCCCc1cccnc1)C(Cc1ccccc1)SCC(Cc1ccccc1)NC(=O)C(F)(F)F (centres unmarked),CYP3A4,thermal stability,,,,ΔTm,5.8 °C
COc1cc(-c2nc3ccccc3s2)cc(CN2CCN(CC(=O)OC(C)C)CCN(CC(=O)OC(C)C)CC2)c1O,copper(II) ion,"metal chelation, spectrophotometric titration",aqueous solution,"50 µM, pH 6.6, together with: Cu(II) 50 µM",higher = stronger binding,pCu,10.3
CC(C)C[C@H](NC(=O)CNC(=O)[C@H](CC(C)C)NC(=O)[C@@H]1CCCN1C(=O)OCC1c2ccccc2-c2ccccc21)C(=O)N[C@@H](CCCNC(=N)N)C(=O)N[C@@H](CO)C(=O)N[C@@H](CCCCN)C(=O)O,"Matrix metalloproteinase-9 (MMP9, Homo sapiens, UniProt P14780)","protease stability, substrate, HPLC",,"500 µM, 72 h, pH 7.5, 37 °C, together with: MMP9 10 U",,residual substrate,not detected
COc1cc(-c2nc3ccccc3s2)cc(CN2CCN(CC(=O)OC(C)(C)C)CCN(CC(=O)OC(C)(C)C)CC2)c1O,copper(II) ion,"metal chelation, spectrophotometric titration",aqueous solution,"50 µM, pH 7.4, together with: Cu(II) 50 µM",higher = stronger binding,pCu,11.3
CCCC[C@H](NC(=O)CNC(=O)CNC(=O)CN1CCN(CC(=O)O)CCN(CC(=O)O)CCN(CC(=O)O)CC1)C(=O)N[C@H]1CC(=O)NCCCC[C@@H](C(N)=O)NC(=O)[C@H](Cc2c[nH]c3ccccc23)NC(=O)[C@H](CCCNC(=N)N)NC(=O)[C@@H](Cc2ccccc2)NC(=O)[C@H](Cc2c[nH]cn2)NC1=O [copper-64 labelled],"Melanocyte-stimulating hormone receptor (Mc1r, Mus musculus, UniProt Q01727)",non-specific uptake,"female C57 mice, B16/F1 melanoma, melanoma tumour","intravenous, dose not given, 2 h, together with: NDP-MSH 10 µg blockade",,tissue uptake,2.71 ± 0.42 %ID/g
CCCCCCCCCCCCCCCC(=O)OCC(CSC[C@H](N)C(=O)N[C@@H](CO)C(=O)N[C@@H](CCCCN)C(=O)N[C@@H](CCCCN)C(=O)N[C@@H](CCCCN)C(=O)N[C@@H](CCCCN)C(=O)NCCCCCC(=O)N[C@@H](CCCCN)C(=O)N[C@@H](CC(C)C)C(=O)N[C@H](C(=O)N[C@@H](Cc1ccccc1)C(=O)N[C@@H](Cc1ccccc1)C(=O)N[C@@H](Cc1ccc2ccccc2c1)C(=O)O)C(C)C)OC(=O)CCCCCCCCCCCCCCC (some centres unmarked),"Amyloid-beta precursor protein, fibrillar amyloid-beta (APP, Homo sapiens, UniProt P05067)",dynamic light scattering,,"20 µM, 18.5 h, equimolar with amyloid-beta, whole sample",,hydrodynamic diameter,~218 nm
CC(=O)Nc1ncc(CN2CC[C@H](Oc3cccc([18F])n3)C[C@@H]2C)s1,"Protein O-GlcNAcase (OGA, Homo sapiens, UniProt O60502)",PET,"healthy human, striatum and cerebellum",,,time to peak uptake,25 min
CN(C(=O)c1ccc2ccccc2c1)[C@@H]1NC(=O)[C@H](Cc2ccccc2)NC(=O)[C@H](NC(=O)[C@@H](N)Cc2ccc(Cl)cc2)CSSC[C@@H](C(=O)N[C@@H](Cc2ccc3ccccc3c2)C(N)=O)NC(=O)[C@H](Cc2ccccc2)NC(=O)[C@H](CCCCN)NC1=O,trypsin,"substrate, RP-HPLC",,"concentration not given, 6 days, pH 8.1",,hydrolysis,55%
C[C@H](NC(=O)[C@H](Cc1ccccc1)NC(=O)[C@H](CO)NC(=O)[C@H](CO)NC(=O)[C@@H](NC(=O)[C@H](CCCNC(=N)N)NC(=O)[C@@H]1CCCN1C(=O)[C@H](CCCNC(=N)N)NC(=O)CN)[C@@H](C)O)C(=O)N[C@@H](CCC(=O)O)C(=O)NCC(=O)O,chymotrypsin,substrate,,,,time to degradation,≤ 0.5 h
COc1ccc2cc(NC(=O)c3cc(-c4cccnc4)nc4ccccc34)ccc2c1,CYP3A4,"substrate, refers to: metabolites M1 plus M2",baculosomes,,,kcat/Km,42700 M⁻¹ s⁻¹
CCc1cc(C)nc2c(CC(=O)N(CC)CC)c(-c3ccc(OCC[18F])cc3)nn12,"Translocator protein (Tspo, Rattus norvegicus, UniProt P16257)",two-tissue compartment model,"rat C6 glioma model, brain","dose not given, 60 min dynamic PET",,total distribution volume,1.94 ± 0.279 mL/cm3
NC(=S)N/N=C/c1cc(Cl)ccc1O,Zn2+ complex,potentiometric titration,,25 °C,,log stability constant,15.9
[64Cu+2].c1cnc(CNCc2ccc(CN3CCCN4CCNCCCN(CC4)CC3)cc2)nc1,CXCR4,,"NOD/SCID mouse, U87 and U87-stb-CXCR4 xenografts","iv, 90 min, no blocking dose",baseline: U87-stb-CXCR4 tumour over muscle,tumour-to-muscle ratio,106 ± 17.2
NS(=O)(=O)Nc1ncnc(OCCOc2ncc(Br)cn2)c1-c1ccc(Br)cc1,"Cytochrome P450 2C6 (Cyp2c6, Rattus norvegicus, UniProt P05178)",metabolite formation,"female rat, recombinant enzyme",scaled by relative mRNA abundance,,contribution to total CLint,9%
O=C(CNC(=O)C(F)(F)F)NC(CSC(Cc1ccccc1)C(=O)NCCCc1cccnc1)Cc1ccccc1 (centres unmarked),CYP3A4,,,"16 µM, 2 h, together with: 10 mM H2O2",baseline: ligand-free enzyme,heme destroyed,28%
O=c1c(/C=N/NC(=S)N/N=C/c2ccccc2O)coc2ccccc12,Zn2+ complex,potentiometric titration,,25 °C,,log stability constant,17.1
Br.Br.Br.O=c1c(O)cccn1CCN1CCN(CCn2cccc(O)c2=O)CCN(CCn2cccc(O)c2=O)CC1,iron(III),,,,,pH of complex dissociation onset,> 10.4
COc1cc(-c2nc3ccccc3s2)cc(CN2CCN(CC(=O)O)CCN(CC(=O)O)CC2)c1O,copper(II) ion,"metal chelation, spectrophotometric titration",aqueous solution,"50 µM, pH 6.6, together with: Cu(II) 50 µM",higher = stronger binding,pCu,11.5
O=C(CCC(=O)OCCNC(=O)[C@@H](Cc1ccccc1)NC(=O)[C@@H](Cc1ccccc1)NC(=O)CCNc1ccc([N+](=O)[O-])c2nonc12)NCCS(=O)(=O)O,porcine liver esterase,substrate,,"1.0 wt%, 1 min, pH 7.4, together with: esterase 1 U/mL",,conversion,2.5%
[64Cu+2].c1ccc(CNCc2ccc(CN3CCCN4CCNCCCN(CC4)CC3)cc2)nc1,CXCR4,,"NOD/SCID mouse, U87 and U87-stb-CXCR4 xenografts, muscle","iv, 30 min, ex vivo",,tissue uptake,0.46 ± 0.08 %ID/g
O=C(O)[C@@H]1C[C@@H](O)CN1C(=O)[C@@H]1CCCN1,iron(III),,,"MA2 complex, I 0.15 M NaCl",,ΔS of complex formation,-0.48 kJ/mol/K

# Repeated from above:
SMILES,target,test,system,setting,how to read,quantity,value
NC(=S)N/N=C/c1cc(Cl)ccc1O,Zn2+ complex,potentiometric titration,,25 °C,,log stability constant,15.9
[64Cu+2].c1cnc(CNCc2ccc(CN3CCCN4CCNCCCN(CC4)CC3)cc2)nc1,CXCR4,,"NOD/SCID mouse, U87 and U87-stb-CXCR4 xenografts","iv, 90 min, no blocking dose",baseline: U87-stb-CXCR4 tumour over muscle,tumour-to-muscle ratio,106 ± 17.2
NS(=O)(=O)Nc1ncnc(OCCOc2ncc(Br)cn2)c1-c1ccc(Br)cc1,"Cytochrome P450 2C6 (Cyp2c6, Rattus norvegicus, UniProt P05178)",metabolite formation,"female rat, recombinant enzyme",scaled by relative mRNA abundance,,contribution to total CLint,9%
